# Measurements collected from several papers.
# Every numbered part comes from another study and shows a few of its results, in no order.

# Block 1 — target: His6 tag; method: AlphaScreen counter screen; concentration: concentration not given
SMILES,inhibition
O=C(Nc1nnc(SCc2ccc(F)cc2)s1)c1ccc(F)cc1,1.8%
O=c1[nH]cnc2cccc(Cl)c12,3.1%
O=C(O)c1ccc(-c2c[nH]c3ncc(-c4ccccc4)cc23)cc1C1CCCC1,10.1%
O=C(NC1CCCC1)c1n[nH]c2ccccc12,4.55%
CNC(=O)c1cc(Oc2ccc(NC(=O)Nc3ccc(Cl)c(C(F)(F)F)c3)c(F)c2)ccn1,6.65%

# Block 2 — cell line: Huh-7; concentration: 10 µM; time: 24 h
Structure (SMILES),viability [%]
COc1cc(C(=O)NCc2ccc(OCCN(C)C)cc2)cc(OC)c1OC,99.7
Cc1c(N(C)CS(=O)(=O)O)c(=O)n(-c2ccccc2)n1C,100
CCCCNC(=O)NS(=O)(=O)c1ccc(C)cc1,98.8
C=C1c2cccc(O)c2C(=O)C2=C(O)[C@]3(O)C(=O)C(C(N)=O)=C(O)[C@@H](N(C)C)[C@@H]3[C@@H](O)[C@H]12,92.2
CN1CCC(=C2c3ccccc3CCc3sccc32)CC1,94.8
CCCC(C(=O)OCCN(CC)CC)(c1ccccc1)c1ccccc1,96.9
C#C[C@]1(OC(C)=O)CC[C@H]2[C@@H]3CCC4=CC(=O)CC[C@@H]4[C@H]3CC[C@@]21C,83.2

# Block 3 — cell line: HaCaT; concentration: 100 µM; time: 36 h
SMILES,viability
CCc1c(C)[nH]c2c1C(=O)C(CN1CCOCC1)CC2 (stereo not shown),86.7%
CN(C)[C@@H]1C(O)=C(C(N)=O)C(=O)[C@@]2(O)C(O)=C3C(=O)c4c(O)cccc4[C@@](C)(O)[C@H]3C[C@@H]12,93.8%
CC1=C(C)C(=O)C(C(CCCCCC(=O)O)c2ccccc2)=C(C)C1=O (stereo not shown),115%
CC(=O)SCC(Cc1ccccc1)C(=O)NCC(=O)OCc1ccccc1 (stereo not shown),107%

# Block 4 — species: mouse; matrix: microsomes or S9; concentration: 2 µM; time: 0.5 h
Compound,remaining compound
Cc1ccc(S(=O)(=O)Nc2nc3ccc(NC(=O)c4cc(-c5cccs5)n[nH]4)cc3s2)cc1,0.166%
CCOc1ccc(N2C(=O)c3c(C(=O)OC)ncn3CC2(C)C(=O)NC2CCCCCC2)cc1 (stereo not shown),47.5%
O=C(OCc1ccccc1)N1CCC2(CC1)CNc1ccccc12,4.66%
O=S(=O)(c1cn[nH]c1)N1CCCC(c2cnccn2)C1 (stereo not shown),53.3%
COCCn1c(C)cc(C)c(C(=O)Nc2nc(COC)n[nH]2)c1=O,> 99%

# Block 5 — observed: ligand displacement; concentration: 10 µM
# Target: Alpha-1D adrenergic receptor (ADRA1D, Homo sapiens, UniProt P25100)
# UniProt P25100, sequence (whole entry, looked up): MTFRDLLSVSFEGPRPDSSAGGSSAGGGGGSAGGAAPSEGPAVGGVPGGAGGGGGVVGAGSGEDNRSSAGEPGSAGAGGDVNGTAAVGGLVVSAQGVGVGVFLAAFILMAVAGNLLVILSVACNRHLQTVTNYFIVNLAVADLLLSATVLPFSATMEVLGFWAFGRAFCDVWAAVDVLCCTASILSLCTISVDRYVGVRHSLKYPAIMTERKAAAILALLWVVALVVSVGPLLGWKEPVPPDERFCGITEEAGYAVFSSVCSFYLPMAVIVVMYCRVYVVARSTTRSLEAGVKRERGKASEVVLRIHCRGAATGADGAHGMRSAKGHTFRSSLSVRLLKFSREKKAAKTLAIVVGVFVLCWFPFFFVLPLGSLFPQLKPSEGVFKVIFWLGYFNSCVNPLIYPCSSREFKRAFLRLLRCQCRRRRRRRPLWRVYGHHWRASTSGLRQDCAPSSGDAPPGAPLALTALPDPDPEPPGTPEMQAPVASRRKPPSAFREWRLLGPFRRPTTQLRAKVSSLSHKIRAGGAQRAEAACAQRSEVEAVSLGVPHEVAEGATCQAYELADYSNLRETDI
Compound,inhibition [%]
COc1cccc(NC(=O)c2nc3scc(CN(C)Cc4ccccc4)c3c(=O)[nH]2)c1,12.6
COc1cc(C(=O)O)ncc1C#Cc1ccccc1NS(=O)(=O)c1cccc2c(N(C)C)ccnc12,1.48
Nc1nc(NCc2ccccc2)nc(-c2ccccc2CO)n1,4.63
O=c1nc(-c2ccccn2)sc2ccccc12,-17.3
CN(C)c1ncnc(-c2ccc3nc(Nc4cc(CN5CCN(C(=O)CC(F)(F)F)CC5)ccn4)[nH]c3c2)c1Cl,20.8
CCc1ccccc1C(=O)Nc1n[nH]c2c(C)c(F)c(C3C(C#N)=C(C)N(C)C(C)=C3C#N)cc12,2.75
Cn1cc(Cl)c2c(Oc3c(F)cc(Nc4cc(Cl)nc(N)n4)cc3F)ccnc21,-6.73
COc1cc(N[C@@H]2CCCC[C@]2(O)C(F)(F)F)ccc1F,-4.64
Cc1ncc(-c2cc(Cl)ccc2F)cc1-n1c(=O)n(CC(N)=O)c2ccccc21,2.71
CCOc1ccc(S(=O)(=O)Nc2ccc(Cl)cc2C#Cc2cnc(C(=O)O)cc2OC)c2ncccc12,20.8
O=C(NCCCC1CCCCC1)c1ccc(CNC(=O)c2cnn(-c3ccccc3)c2C(F)(F)F)cc1,10.1
O=C(Nc1ccc(Oc2ccc(F)cc2)cc1)N1CCc2ncccc2[C@H]1c1ccc(F)cc1,34
CN1CCN(c2cnc3c(C4CCN(C(=O)c5ccc(OC(F)(F)F)cc5N)CC4)ncnc3c2)CC1,-10.3
CNC(=N)NCCC[C@H](NC(=O)[C@H](CC(C)C)NC(=O)NNC(=O)[C@H](Cc1ccccc1)NC(=O)[C@H](CO)NC(=O)[C@H](CC(N)=O)NC(=O)[C@@H](Cc1ccncc1)NC(=O)[C@H](N)Cc1ccc(O)cc1)C(=O)N[C@@H](Cc1ccccc1)C(N)=O,13.9
CN1CCN(C(=O)C(C)(C)c2ccc(C(=O)Nc3cn4cc(-c5cc(C(C)(C)C)cc(C(C)(C)C)c5)ccc4n3)cc2)CC1,57
O=C1NC(c2ccccn2)Sc2ccccc21 (stereo not shown),-18.5

# Repeated from above (block 5):
Compound,inhibition [%]
O=C(NCCCC1CCCCC1)c1ccc(CNC(=O)c2cnn(-c3ccccc3)c2C(F)(F)F)cc1,10.1
O=C(Nc1ccc(Oc2ccc(F)cc2)cc1)N1CCc2ncccc2[C@H]1c1ccc(F)cc1,34
CN1CCN(c2cnc3c(C4CCN(C(=O)c5ccc(OC(F)(F)F)cc5N)CC4)ncnc3c2)CC1,-10.3
CNC(=N)NCCC[C@H](NC(=O)[C@H](CC(C)C)NC(=O)NNC(=O)[C@H](Cc1ccccc1)NC(=O)[C@H](CO)NC(=O)[C@H](CC(N)=O)NC(=O)[C@@H](Cc1ccncc1)NC(=O)[C@H](N)Cc1ccc(O)cc1)C(=O)N[C@@H](Cc1ccccc1)C(N)=O,13.9
CN1CCN(C(=O)C(C)(C)c2ccc(C(=O)Nc3cn4cc(-c5cc(C(C)(C)C)cc(C(C)(C)C)c5)ccc4n3)cc2)CC1,57
